Measurements of several laboratories.
Compare with care: the assays were run in different laboratories.
RPS6KA3: Ribosomal protein S6 kinase alpha-3 (RPS6KA3, Homo sapiens, UniProt P51812)
Sequence of UniProt P51812 (whole entry, looked up): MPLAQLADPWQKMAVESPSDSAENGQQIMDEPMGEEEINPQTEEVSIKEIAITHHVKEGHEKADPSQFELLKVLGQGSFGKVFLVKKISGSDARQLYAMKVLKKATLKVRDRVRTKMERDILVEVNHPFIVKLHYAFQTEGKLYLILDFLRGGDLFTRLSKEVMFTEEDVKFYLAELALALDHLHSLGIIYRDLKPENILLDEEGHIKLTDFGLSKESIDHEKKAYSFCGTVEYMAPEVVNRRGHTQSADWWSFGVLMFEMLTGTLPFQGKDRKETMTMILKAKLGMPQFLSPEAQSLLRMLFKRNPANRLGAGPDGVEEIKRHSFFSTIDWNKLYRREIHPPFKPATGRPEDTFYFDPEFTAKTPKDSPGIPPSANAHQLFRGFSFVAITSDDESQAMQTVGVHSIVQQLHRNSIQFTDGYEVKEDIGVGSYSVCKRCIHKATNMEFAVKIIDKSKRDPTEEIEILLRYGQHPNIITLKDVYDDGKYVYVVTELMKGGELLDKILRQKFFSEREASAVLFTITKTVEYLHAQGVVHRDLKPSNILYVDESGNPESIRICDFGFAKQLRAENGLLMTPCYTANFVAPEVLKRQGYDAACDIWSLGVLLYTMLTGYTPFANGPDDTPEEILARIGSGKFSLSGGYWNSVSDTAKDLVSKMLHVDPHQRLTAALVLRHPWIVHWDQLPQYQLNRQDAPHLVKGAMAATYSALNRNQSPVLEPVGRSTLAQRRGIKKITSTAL

CN1CC(Oc2cnc(C#N)cc2-c2ccn3nc(NC(=O)C4CC4)cc3c2)C1 — inhibition (RPS6KA3; inhibitor, KinaseProfiler panel; 1 µM): 19%
CC[C@@H]1[C@H](F)C(=O)N[C@@H]1COc1nccc2cc(C(N)=O)c(OC)cc12 — inhibition (RPS6KA3; ATP probe binding, KiNativ profiling, refers to: domain 2 Lys2 site; THP-1 cell lysate; 0.04 mM): -18.2%
O=C1NC(=O)/C(=C/c2ccc(-c3ccc(F)cc3O)o2)S1 — remaining activity (RPS6KA3; enzyme activity; 10 µM): 40%
CCN1CCN(Cc2ccc(NC(=O)c3ccc(C)c(/C=C/c4cnc5[nH]ccc5c4OC)c3)cc2C(F)(F)F)CC1 — inhibition (RPS6KA3; A-375; concentration not given): 0.274%
COc1cc(F)ccc1-c1ncnc(Nc2cccc(C[S@](C)(=N)=O)c2)n1 — remaining activity (RPS6KA3; kinase activity; 10 µM, added: 10 µM ATP): 122%
CCN1CCN(Cc2ccc(NC(=O)c3ccc(C)c(Oc4ccnc5[nH]ccc45)c3)cc2C(F)(F)F)CC1 — inhibition (RPS6KA3; A-375; concentration not given): -0.0649%
C=CC(=O)N1CCC(COCC(=O)N2CCN(c3nc(-c4cnc(N)nc4C(F)F)nc(N4CCOC[C@@H]4C)n3)CC2)CC1 — remaining binding (Ribosomal protein S6 kinase alpha-3, N-terminal kinase domain (RPS6KA3, Homo sapiens, UniProt P51812); KINOMEscan; 1 µM): 100%
CNc1ncc2c(/C=C/C(=O)N3CCC(OC)CC3)nn(Cc3cccc(C(F)(F)F)c3)c2n1 — remaining activity (RPS6KA3; kinase activity, inhibitor; 1 µM; reference: untreated control): 109%
